Results from different studies.
± marks the error that the study gave.

CC[C@H](C)[C@@H]1NC(=O)[C@H](CCCNC(=N)N)NC(=O)C[C@@H](c2cccc3ccccc23)NC(=O)[C@@H]2CSSC[C@H](NC(=O)C[C@@H](c3cccc4ccccc34)NC(=O)[C@H](CCCNC(=N)N)NC(=O)[C@@H]3CCCN3C(=O)[C@@H]3CCCN3C1=O)C(=O)N[C@@H](Cc1ccccc1)C(=O)N1CCC[C@H]1C(=O)N[C@@H](CC(=O)O)C(=O)N[C@@H](CC(=O)O)C(=O)N[C@@H](Cc1ccccc1)C(=O)N2 — precipitation onset time (solubility; simulated intestinal fluid; monitored for 1 h): 15 min
COc1ccc2nc3cc(Cl)ccc3c(Nc3cc(CN4CCCC4)c(O)c(CN4CCCC4)c3)c2n1 — lymphocyte count (mouse, blood; intraperitoneal, 14 mg/kg): 6.25 10⁹/L
CCCCN1CCC(COC(=O)c2ccc(N)c(O[11CH3])c2)CC1 — peak radioactivity (PET; rhesus monkey, whole brain; dose not given, average): 2.3 SUV
Cn1cncc1-c1c(F)cncc1NC(=O)c1c(N)nn2cc(F)cnc12 — grade ≥3 hyponatraemia incidence (human patients; oral, 270 mg once daily): 25%
CCN1[C@@H](C(=O)NC23CCC(C(=O)O)(CC2)CC3)[C@H](c2cccc(Cl)c2F)[C@]2(C(=O)Nc3cc(Cl)ccc32)C12CCCCC2 — any-grade adverse event incidence (patients with advanced solid tumours; oral, 150 mg): 100%
O=S(=O)(Nc1ccccc1)c1ccc(NC(=S)Nc2ccccc2)cc1 — mean corpuscular volume (mouse, female, blood; oral, 80 mg/kg daily, 14 days): 47.4 fL
Cc1noc(C)c1Cn1cc(N2C(=O)CN(Cc3cccc(O)c3)C2=O)cn1 — micronucleated PCE (CD-1 mouse, male, bone marrow; 500 mg/kg/day, 24 h): 0.3 per 2000 PCE
CCCCCCCCCCCCCCCC(=O)N[C@@H](CCC(=O)NCCCC[C@H](NC(=O)[C@H](CC(=O)O)NC(=O)[C@H](CO)NC(=O)[C@@H](NC(=O)[C@H](Cc1ccccc1)NC(=O)[C@@H](NC(=O)CNC(=O)[C@H](CCC(N)=O)NC(=O)[C@H](CO)NC(=O)[C@@H](N)Cc1c[nH]cn1)[C@@H](C)O)[C@@H](C)O)C(=O)N[C@@H](CO)C(=O)N[C@@H](CCC(=O)O)C(=O)N[C@@H](Cc1ccc(O)cc1)C(=O)N[C@@H](CC(C)C)C(=O)N[C@@H](CC(=O)O)C(=O)N[C@@H](CO)C(=O)N[C@@H](CCC(=O)O)C(=O)N[C@@H](CCCNC(=N)N)C(=O)N[C@@H](C)C(=O)N[C@@H](CCCNC(=N)N)C(=O)N[C@@H](CC(=O)O)C(=O)N[C@@H](Cc1ccccc1)C(=O)N[C@H](C(=O)N[C@@H](C)C(=O)N[C@@H](Cc1c[nH]c2ccccc12)C(=O)N[C@@H](CC(C)C)C(=O)N[C@@H](CCC(=O)O)C(=O)N[C@@H](C)C(=O)NCC(=O)NCC(=O)O)C(C)C)C(=O)O — atrial fibrillation (human, CrCl < 20 mL/min; sc, 100 µg single dose): 0%
COc1cc(C2C3=C(COC3=O)N(CCO)c3cc4c(cc32)CCC4)cc(OC)c1OC (stereo not shown) — body weight (female C57BL/6 mice; intraperitoneal, 100 mg/kg, 48 h, single dose, mean): 22 g
C[C@]1(O)C[C@@](N)(c2ccc(-c3nc4n(c3-c3ccccc3)COc3ccncc3-4)cc2)C1 — patients with Fatigue TEAE (human, advanced or metastatic solid tumours; once daily, dose escalation total, any grade): 22.2%
CC(C)[C@@H]1NC(=O)CNC(=O)[C@H](CC(N)=O)NC(=O)[C@H](CCCNC(=N)N)NC(=O)[C@H](Cc2ccc(O)cc2)NC(=O)[C@H](C(C)C)NC(=O)[C@@H](NC(=O)[C@@H](NC(=O)[C@H](CC(N)=O)NC(=O)[C@H](Cc2c[nH]c3ccccc23)NC(=O)[C@H](C)NC(=O)[C@H](Cc2ccccc2)NC(=O)CN)C(C)C)CSSC[C@@H](C(=O)N[C@@H](Cc2cnc[nH]2)C(=O)N[C@@H](CCCNC(=N)N)C(=O)N[C@@H](CCCNC(=N)N)C(=O)N[C@@H](C)C(=O)N[C@@H](CC(N)=O)C(N)=O)NC(=O)[C@H](C(C)C)NC(=O)[C@H](CCCNC(=N)N)NC1=O — haematocrit (ICR mice, blood; intraperitoneal, 10 mg/kg, day 5): 41.1 ± 1.13%
CN1CCN(S(=O)(=O)c2cc([N+](=O)[O-])ccc2N(CCOS(C)(=O)=O)CCOS(C)(=O)=O)CC1 — Tmax (naive female NSG mice, plasma; intraperitoneal, 10 mg/kg): 0.25 h
C=CC(=O)Nc1cc(Nc2nccc(Nc3cc(Cl)c(F)cc3C(C)(C)O)n2)c(OC)cc1N1CC[C@@H](N(C)C)C1 — patients with lipase increased (human patients; oral, 200 mg, treatment-emergent adverse events): 6.3%
Cn1cc(-c2nc(N[C@@H]3CCCC[C@@H]3N)c(F)c3c2C(=O)NC3)cn1 — hemorrhagic adverse events (measured: subdural haematoma; patients with relapsed or refractory AML; oral, 60 mg once daily): 25%
Cc1nc([C@@](C)(CC2CC2)NC(=O)c2cc(OCC(F)(F)F)c(C3CC3)cn2)no1 — Tmax (C57BL/6 mice; oral, 2.8 mg/kg): 0.5 h
CC1(C)C(/C=C(\Cl)C(F)(F)F)C1C(=O)OC(C#N)c1cccc(Oc2ccccc2)c1 (stereo not shown) — enzyme contribution to clearance (measured: CYP2C9; human, age 1 year): 0.48%
CC(=O)c1c(C)c2cnc(Nc3ccc(C4CCN(CCS(C)(=O)=O)CC4)cn3)nc2n(C2CCCC2)c1=O — t1/2 (human, plasma; oral, 25 mg once daily, day 21, multiple doses): 7.07 h
O=c1nc(NO)ccn1[C@@H]1O[C@H](CO)[C@@H](O)[C@H]1O — long-term stability (rat fetus dialysate; 25 ng/mL, more than 4 weeks, -20 °C, low concentration, added: molnupiravir 5 ng/mL): 97.5 ± 3.81%
CC(C)(C)c1cc(-n2nc3ccccc3n2)c(O)c(C(C)(C)C)c1 — daily dermal exposure dose (human aged 6-11 years; concentration not given, spray sunscreen, mean): 4.54 ng/kg/day
CC(C)C[C@H](NC(=O)[C@H](CCCCN)NC(=O)OCC1c2ccccc2-c2ccccc21)C(=O)N[C@H](C(=O)N[C@@H](Cc1ccccc1)C(=O)N[C@@H](Cc1ccccc1)C(=O)N[C@@H](CCCCN)C(=O)NCC(=O)N[C@@H](Cc1ccccc1)C(=O)N[C@@H](C)C(=O)N[C@@H](Cc1c[nH]c2ccccc12)C(=O)N[C@@H](CC(N)=O)C(=O)N[C@H](C(=O)N[C@H]1CSSC[C@@H](C(=O)N[C@@H](Cc2c[nH]cn2)C(=O)N[C@@H](CCCNC(=N)N)C(=O)N[C@@H](CCCNC(=N)N)C(=O)N[C@@H](C)C(=O)N[C@@H](CC(N)=O)C(N)=O)NC(=O)[C@H](C(C)C)NC(=O)[C@H](CCCNC(=N)N)NC(=O)[C@H](C(C)C)NC(=O)CNC(=O)[C@H](CC(N)=O)NC(=O)[C@H](CCCNC(=N)N)NC(=O)[C@H](Cc2ccc(O)cc2)NC(=O)[C@H](C(C)C)NC1=O)C(C)C)C(C)C — mean platelet volume (ICR mice, blood; intraductal mammary, 10 mg/kg, day 5): 6.43 ± 0.09 fL
CC(C)(Nc1nc(N2CCNCC2)nc2ccccc12)c1ccccc1 — cytotoxicity efficacy (Vero-E6; CellTiter-Glo ATP; concentration not given, 72 h, second round 5-point; baseline: DMSO 0%, hyamine -100%, more negative, more toxic): -10.9%
O=C(Nc1ccccc1)C1CCN(C(=O)Oc2cccnc2)CC1 — subjects with infections and infestations (adverse event reporting; healthy women; oral, 60 mg, 7 days): 0%
Nc1ncnc2c1ncn2[C@@H]1O[C@@H]2COP(=O)([S-])O[C@@H]3[C@H](O)[C@@H](COP([O-])(=S)O[C@H]2[C@H]1O)O[C@H]3n1cnc2c(N)ncnc21.[Na+].[Na+] (stereo partly shown) — MCV (non-tumor-bearing mice, blood; intravenous, 1 mg/kg, toxicity study): 38.9 ± 0.69 fL
C[C@]1(CO)Cc2ncn(-c3ccc(C#N)c(Cl)c3)c2C(=O)O1 — Cmax at steady state (human, plasma; 80 mg once daily, fasted): 2690 nM
O=[N+]([O-])NC1=NCCN1Cc1ccc(Cl)nc1 — final permeate concentration (ultrafiltration; cow milk whey; 200 nM nominal in whole milk): 165 nM
CC(C)c1nc(N(C)S(C)(=O)=O)nc(-c2ccc(F)cc2)c1/C=C/[C@@H](O)C[C@@H](O)CC(=O)O — incidence of Headache (healthy human subjects; oral, dose not given, study CL-0537 safety set): 0%
COc1ccccc1-c1ccc(CN2CCCC(c3nc4ccc(C)cc4c(=O)[nH]3)C2)cc1 (stereo not shown) — maximum response (Vero-E6; CellTiter-Glo ATP; 72 h, first round 5-point; baseline: DMSO 0%, hyamine -100%, more negative, more toxic): -26.8%
COc1cc2c(Oc3ccc4[nH]c(C)cc4c3F)ccnc2cc1OCC1(N)CC1 — Hyperuricaemia incidence (paediatric refractory sarcoma patients; 8 mg): 0%
CO[C@H]1C[C@@H]2CC[C@@H](C)[C@@](O)(O2)C(=O)C(=O)N2CCCC[C@H]2C(=O)O[C@H]([C@H](C)C[C@@H]2CC[C@@H](OC(=O)NCCOCCOCCOCCOCCOCCOCCOCCOCCC(=O)N3CCc4cc(Cn5nc(-c6ccc7oc(N)nc7c6)c6c(N)ncnc65)ccc4C3)[C@H](OC)C2)C[C@@H](O)[C@H](C)/C=C(\C)[C@@H](O)[C@@H](OC)C(=O)[C@H](C)C[C@H](C)/C=C/C=C/C=C/1C — decreased appetite leading to dose reduction (patients with advanced solid tumours; intravenous, 8 mg weekly, any grade): 0%
C[C@@H](NC(=O)N1C(=O)[C@H](Cc2ccnc(N)c2)[C@H]1C(=O)O)C1CCCCC1 — incidence of moderate AEs (healthy adult Chinese volunteers; continuous intravenous infusion, 1.5 mg/kg/h, 5-day infusion, CTCAE 5.0 grading): 12.5%
CCS(=O)(=O)Nc1ccc(Oc2ccc(F)cc2F)c(-c2cn(C)c(=O)c3[nH]ccc23)c1 — treatment-emergent adverse events (fatal myocardial infarction; human, relapsed/refractory AML; oral, dose not given): 5%
NCCCC[C@@H]1NC(=O)[C@@H](Cc2c[nH]c3ccccc23)NC(=O)[C@H](c2ccccc2)NC(=O)[C@@H]2C[C@@H](OC(=O)NCCN)CN2C(=O)[C@H](Cc2ccccc2)NC(=O)[C@H](Cc2ccc(OCc3ccccc3)cc2)NC1=O — QTcI change from baseline (healthy volunteers; subcutaneous, 1950 µg twice daily, day 5, 4.00 h): 11.3 ms
COc1ccnc(C(=O)N[C@H]2COC(=O)[C@H](Cc3ccccc3)[C@@H](OC(=O)C(C)C)[C@H](C)OC2=O)c1OCOC(=O)C(C)C — DT50 (aerobic soil incubation; soil; worst-case terminal value, for exposure modelling): 3.5 days
COc1ccc(C[C@@H]2NC(=O)[C@H]([C@@H](C)O)NC(=O)[C@@H]3[C@@H]4CCN3C(=O)[C@@H]3Cc5cn(c6ccc(F)cc56)CCCCCCN(Cc5ccc(cc5)CCNC(=O)[C@]5(C)CCCN5C2=O)C(=O)CCC(=O)N[C@@H](C)C(=O)N[C@H](CNC(=O)CCCCC[N+](C)(C)C)C(=O)N[C@@H](Cc2cccc(c2)CNC(=O)CO4)C(=O)N3)cc1 — t1/2 (human, plasma; oral, 200 mg): 56.4 h
C=CC(=O)N1CC[C@H](n2nc(C#Cc3cc(OC)cc(OC)c3)c3c(N)ncnc32)C1 — adverse drug reaction incidence (patients with advanced solid tumours; oral, dose not given, Vomiting, any grade, QD, added: sevelamer hydrochloride): 18.2%
CCc1ccc(CC/C=C/c2ccc3c(c2)C(=O)CC3)cc1 — ALT serum activity (Sprague-Dawley rat, female; oral, 450 mg/kg/day, 14 days): 80.3 U/L
COc1ncccc1-c1cnn2ccc(N3CCN(C(=O)OC(C)C)CC3)nc12 — free drug concentration (rat, CCI mechanical allodynia model, plasma; oral, 3 mg/kg, 240 min): 14.6 nM

For quick reference, copied from above:
CC[C@H](C)[C@@H]1NC(=O)[C@H](CCCNC(=N)N)NC(=O)C[C@@H](c2cccc3ccccc23)NC(=O)[C@@H]2CSSC[C@H](NC(=O)C[C@@H](c3cccc4ccccc34)NC(=O)[C@H](CCCNC(=N)N)NC(=O)[C@@H]3CCCN3C(=O)[C@@H]3CCCN3C1=O)C(=O)N[C@@H](Cc1ccccc1)C(=O)N1CCC[C@H]1C(=O)N[C@@H](CC(=O)O)C(=O)N[C@@H](CC(=O)O)C(=O)N[C@@H](Cc1ccccc1)C(=O)N2 — precipitation onset time (solubility; simulated intestinal fluid; monitored for 1 h): 15 min
COc1ccc2nc3cc(Cl)ccc3c(Nc3cc(CN4CCCC4)c(O)c(CN4CCCC4)c3)c2n1 — lymphocyte count (mouse, blood; intraperitoneal, 14 mg/kg): 6.25 10⁹/L
CCCCN1CCC(COC(=O)c2ccc(N)c(O[11CH3])c2)CC1 — peak radioactivity (PET; rhesus monkey, whole brain; dose not given, average): 2.3 SUV
Cn1cncc1-c1c(F)cncc1NC(=O)c1c(N)nn2cc(F)cnc12 — grade ≥3 hyponatraemia incidence (human patients; oral, 270 mg once daily): 25%
CCN1[C@@H](C(=O)NC23CCC(C(=O)O)(CC2)CC3)[C@H](c2cccc(Cl)c2F)[C@]2(C(=O)Nc3cc(Cl)ccc32)C12CCCCC2 — any-grade adverse event incidence (patients with advanced solid tumours; oral, 150 mg): 100%
